Results collected from several papers.
Protocols differ between the studies behind these lines.
Organism: Escherichia coli

| Molecule | test | system | setting | MIC |
| --- | --- | --- | --- | --- |
| CCc1cc(=O)c2c(OCC(O)CN3CCC(C)CC3)c3ccoc3c(OC)c2o1 (stereo not drawn) | microbial growth, broth dilution | ATCC25 | 19 h | > 256 µg/mL |
| NC[C@H]1O[C@H](O[C@H]2[C@H](O)[C@@H](O[C@H]3O[C@H](CO)[C@@H](O)[C@H](N)[C@H]3O)[C@H](N)C[C@@H]2N)[C@H](O)[C@@H](O)[C@@H]1O.O=S(=O)(O)O | broth microdilution | ATCC 25922, LB medium | 16 to 20 h, 37 °C | 6.25 µg/mL |
| CCN(CC)c1ccc(C=NNC(=O)c2ccncc2)c(O)c1 | microbial growth, broth dilution | ATCC25922 | – | > 256 µg/mL |
| Clc1ccc(C=Nc2ncn[nH]2)cc1 | microbial growth, broth dilution | ATCC25922 | – | > 256 µg/mL |
| CC[C@H](C)[C@H](NC(=O)[C@H](CCCNC(=N)N)NC(=O)CNC(=O)[C@H](CC(C)C)NC(=O)[C@H](Cc1ccccc1)NC(=O)[C@H](CCCCN)NC(=O)[C@H](CO)NC(=O)[C@H](Cc1ccccc1)NC(=O)[C@H](Cc1c[nH]c2ccccc12)NC(=O)[C@H](CCC(N)=O)NC(=O)[C@@H](NC(=O)[C@@H](N)Cc1ccccc1)C(C)C)C(=O)N[C@@H](CC(C)C)C(N)=O | – | ATCC 25922 | 1 h, 37 °C, dividing cells in LB | > 100 µg/mL |
| CC1(C)SC2C(NC(=O)C(NC(=O)C3=C(O)C(Cc4ccccc4)NC3=O)c3ccccc3)C(=O)N2C1C(=O)O (stereo not drawn) | broth microdilution | BW25113, Mueller-Hinton broth | added: CCCP 50 µg/mL | 25 µg/mL |
| CN(C)c1cc(NC(=O)CNC(C)(C)C)c(O)c2c1C[C@H]1C[C@H]3[C@H](N(C)C)C(O)=C(C(N)=O)C(=O)[C@@]3(O)C(O)=C1C2=O | CLSI broth dilution | ATCC 25922 | – | 0.13 µg/mL |
| CC1(C)S[C@@H]2[C@H](NC(=O)[C@H](N)c3ccccc3)C(=O)N2[C@H]1C(=O)O | microbial growth, broth dilution | ATCC25922 | – | 6.25 to 12.5 µg/mL |
| CCc1cc(=O)c2c(OCC(O)CNC(C)C)c3ccoc3c(OC)c2o1 (stereo not drawn) | microbial growth, broth dilution | ATCC25 | 19 h | > 256 µg/mL |
| RXRRXRRXRRXR (peptide-PNA conjugate) | broth microdilution | peptide, UPEC 536, Mueller-Hinton broth | 24 h, 37 °C | 1.25 µM |
| CS(=O)(=O)c1ccc(C=Nc2ncn[nH]2)cc1 | microbial growth, broth dilution | ATCC25922 | – | > 256 µg/mL |
| CCN(CC)c1ccc(C=NNC(=O)c2ccc(C)cc2)c(O)c1 | microbial growth, broth dilution | ATCC25922 | – | > 256 µg/mL |
| CC1(C)S[C@@H]2[C@H](NC(=O)C(C(=O)O)c3ccccc3)C(=O)N2[C@H]1C(=O)O (stereo partly drawn) | broth microdilution | BW25113, Mueller-Hinton broth | added: 2,2'-bipyridyl 30 µg/mL | 6.25 µg/mL |
| C[C@H]1COc2c(N3CCN(C)CC3)c(F)cc3c(=O)c(C(=O)O)cn1c23 | broth microdilution | ATCC 25922 | 16 to 20 h, 37 °C | 0.024 µg/mL |
| Oc1ccc(C=Nc2ncn[nH]2)cc1 | microbial growth, broth dilution | ATCC25922 | – | > 256 µg/mL |

Excerpt of the above:
| Molecule | test | system | setting | MIC |
| --- | --- | --- | --- | --- |
| CCc1cc(=O)c2c(OCC(O)CN3CCC(C)CC3)c3ccoc3c(OC)c2o1 (stereo not drawn) | microbial growth, broth dilution | ATCC25 | 19 h | > 256 µg/mL |
